Measured values pooled from the literature.
Compare with care: the assays were run in different laboratories. “And” joins repeats or separate records; there may be more than shown. ± gives the spread as reported.
Cell line: A549

SMILES | observed | technique | time | notes | IC50
COc1ccc2c(c1O)CCCC=C2c1cc(OC)c(OC)c(OC)c1 | cell growth or viability | SRB | – | – | 2.7e-05 µM
COc1ccc2c(c1)C(=NNC(=O)c1cc3cc(OC)ccc3[nH]1)C(=O)N2Cc1ccccc1 | cell growth or viability | – | – | – | 0.9 µM
COC(=O)[C@@H](NC(=O)[C@@H](NC(=O)[C@@H](NC(=O)[C@@H]1CCCN1C(=O)[C@H](C)NC(=O)OC(C)(C)C)C(C)C)C(C)C)C(C)C | cell growth or viability | SRB | – | – | 1 µM
CCN1CC2(COC)CCC(OC)C34C5CC6C(OC)C(O)C(O)(C(CC23)C14)C5C6OC(=O)c1ccccc1 (centres unmarked) | cell growth or viability | MTT | – | – | 21.3 µM
N.N.O=C([O][Pt]([Cl])([Cl])[O]C(=O)c1ccc(P(c2ccccc2)c2ccccc2)cc1)c1ccc(P(c2ccccc2)c2ccccc2)cc1.[Cl][Au].[Cl][Au] | cell growth or viability | resazurin | 72 h | – | 10.2 µM
C[C@H]1C(OCCCCC[P+](c2ccccc2)(c2ccccc2)c2ccccc2)O[C@@H]2O[C@@]3(C)CCC4[C@H](C)CCC1[C@]42OO3 (some centres unmarked) | cell growth or viability | MTT | 72 h | – | 0.279 µM
C=CC[P](c1ccccc1)(c1ccccc1)[Pt]([S]c1nc2ccccc2s1)([S]c1nc2ccccc2s1)[P](CC=C)(c1ccccc1)c1ccccc1 | cell growth or viability | MTT | – | – | 20.2 µM
C[C@H]1O[C@@H](O[C@H]2CC[C@@]3(C)[C@H](CC[C@@H]4[C@@H]3C[C@@H](O)[C@]3(C)[C@@H](C5=CC(=O)OC5)CC[C@]43O)C2)C[C@H](O)[C@@H]1O[C@@H]1O[C@H](CO)[C@@H](O)[C@H](O)[C@H]1O | cell growth or viability | MTT | 48 h | – | 0.15 µM
NC1CCCCC1N.O=C1[O][Pt]([O]C(=O)c2ccc(P(c3ccccc3)c3ccccc3)cc2)([O]C(=O)c2ccc(P(c3ccccc3)c3ccccc3)cc2)[O]C1=O.[Cl][Au].[Cl][Au] | cell growth or viability | resazurin | 72 h | – | 12.8 µM
CCN1CC2(COC)C(O)CC(OC)C34C5CC6(O)C(OC)C(O)C(O)(C5C6OC(=O)c5ccccc5)C(C(OC)C23)C14 (centres unmarked) | cell growth or viability | MTT | – | – | 20.6 µM
C[C@H]1C(OCCCCCCCCCC[P+](c2ccccc2)(c2ccccc2)c2ccccc2)O[C@@H]2O[C@@]3(C)CCC4[C@H](C)CCC1[C@]42OO3 (some centres unmarked) | cell growth or viability | MTT | 72 h | – | 0.167 µM
C1=CCCC=CCC1.C1=CCCC=CCC1.O=C(N=P12CN3CN(CN(C3)C1)C2)c1cccc[c]1[Pt+].O=C(N=P12CN3CN(CN(C3)C1)C2)c1cccc[c]1[Pt+].[Cl][Hg-]([Cl])[Cl].[Cl][Hg-]([Cl])[Cl].[Cl][Hg][Cl].[Cl][Hg][Cl] | cell growth or viability | MTT | 24 h | – | 20.8 µM
C=CC[P](c1ccccc1)(c1ccccc1)[Pt]([Cl])([Cl])[P](CC=C)(c1ccccc1)c1ccccc1 | cell growth or viability | MTT | – | – | 22.5 µM
CCN1CC2(COC)CCC(OC)C34C5CC6C(OC)CC(O)(C5C6OC(=O)c5ccccc5)C(C(OC)C23)C14 (centres unmarked) | cell growth or viability | MTT | – | – | 13.9 µM
C[C@H]1O[C@@H](O[C@H]2CC[C@@]3(C)[C@H](CC[C@@H]4[C@@H]3CC[C@]3(C)[C@@H](C5=CC(=O)OC5)[C@@H](O)C[C@]43O)C2)C[C@H](O)[C@@H]1O | cell growth or viability | MTT | 48 h | – | 0.27 µM
C[C@H]1C(OCCCCCCCCC[P+](c2ccccc2)(c2ccccc2)c2ccccc2)O[C@@H]2O[C@@]3(C)CCC4[C@H](C)CCC1[C@]42OO3 (some centres unmarked) | cell growth or viability | MTT | 72 h | – | 0.224 µM
CC(C)C(O)C(NC(=O)[C@H](Cc1ccc(O)cc1)NC(=O)C(Cc1ccc(O)c(Cl)c1)[N+](C)(C)C)C(=O)N[C@@H](C)C(=O)O (some centres unmarked) | cell growth or viability | – | – | – | > 100 µM
CCCCCCCCCCCC[C@@H](O)[C@H]1CC[C@H]([C@H](O)CCCCCCCCCCCCCCC2=C[C@H](C)OC2=O)O1 | cell growth or viability | MTT | 72 h | – | 5 µM
C=CC[P](c1ccccc1)(c1ccccc1)[Pt]([S]c1ccccn1)([S]c1ccccn1)[P](CC=C)(c1ccccc1)c1ccccc1 | cell growth or viability | MTT | – | – | 4.31 µM
C[C@H]1C(OCCCC[P+](c2ccccc2)(c2ccccc2)c2ccccc2)O[C@@H]2O[C@@]3(C)CCC4[C@H](C)CCC1[C@]42OO3 (some centres unmarked) | cell growth or viability | MTT | 72 h | – | 0.223 µM
Cc1ccnc(-c2cc(C)ccn2)c1.[C-]#[O+].[C-]#[O+].[C-]#[O+].[Re+] | cell viability | – | – | – | 5.2 ± 4 µM

SMILES | observed | technique | time | notes | IC50
CCOC12C(O)C(OC)C3(O)CC(C1C3OC(=O)c1ccccc1)C13C(OC)CC(O)C4(COC)CN(CC)C1C2C(OC)C43 (centres unmarked) | cell growth or viability | MTT | – | – | 20.1 µM
Cc1[nH]c2cc(Cl)cc(Cl)c2c1CCN | cell growth or viability | ATP luminescence | 72 h | – | 34.4 µM
CCCCCCCCCCCCC(=O)O.O=C1CCCC2C3CCCN4CCCC(CN12)C34 (centres unmarked) | cell growth or viability | MTT | 24 h | – | 680 µM
C#CCCCC[C@H](C)C[C@@H](C)C(=O)N[C@@H](C)C(=O)N1CCC[C@H]1C(=O)N[C@H](C(=O)N[C@H](C(=O)N[C@H](C(=O)N[C@@H](Cc1ccccc1)C(=O)N1CCC[C@H]1C(=O)N1CCC[C@H]1C(C)=O)C(C)C)C(C)C)C(C)C | cell growth or viability | SRB | – | – | 2 µM
CC[C@H](C)[C@H](NC(=O)[C@H](CCCCN)NC(=O)[C@@H](NC(=O)[C@H](CCC(N)=O)NC(=O)[C@@H](N)CCCNC(=N)N)[C@@H](C)CC)C(=O)N[C@@H](Cc1c[nH]c2ccccc12)C(=O)N[C@@H](Cc1ccccc1)C(=O)N[C@@H](CCC(N)=O)C(=O)N[C@@H](CC(N)=O)C(=O)N[C@@H](CCCNC(=N)N)C(=O)N[C@@H](CCCNC(=N)N)C(=O)N[C@@H](CCSC)C(=O)N[C@@H](CCCCN)C(=O)N[C@@H](Cc1c[nH]c2ccccc12)C(=O)N[C@@H](CCCCN)C(=O)N[C@@H](CCCCN)C(N)=O | cytotoxicity | – | – | – | 60.8 µM
C[C@H]1C(OCCCCCCCCCCC[P+](c2ccccc2)(c2ccccc2)c2ccccc2)O[C@@H]2O[C@@]3(C)CCC4[C@H](C)CCC1[C@]42OO3 (some centres unmarked) | cell growth or viability | MTT | 72 h | – | 0.185 µM
C[C@@H]1O[C@@H](Oc2cc3c(=O)oc4c(O)c(O)cc5c(=O)oc(c2O)c3c45)[C@H](O)[C@H](OC(=O)c2cc(O)c(O)c(O)c2)[C@H]1OC(=O)c1cc(O)c(O)c(O)c1 | cell growth or viability | MTT | 48 h | – | > 100 µg/mL
COc1cc(/C=C(\C#N)C(=O)Nc2nnc(C(F)(F)F)s2)ccc1OC(=O)N1CCN(C(=O)CCCC(=O)NCCCC[C@@H]2NC(=O)[C@@H](Cc3ccc(O)cc3)NC(=O)[C@H](CC(=O)O)NC(=O)CNC(=O)[C@H](CCCNC(=N)N)NC2=O)CC1 | cell growth or viability | MTT | – | – | > 100 µM
CCN1CC2(COC)CCC(O)C34C5CC(C(CO)OC)CC5C(=O)C(C(OC)C23)C14 (centres unmarked) | cell growth or viability | MTT | – | – | 26.5 µM
O=C1[O][Pt]2([OH])([OH])([NH]C3CCCCC3[NH]2)[O]C1=O (centres unmarked) | cell growth or viability | resazurin | 72 h | – | > 100 µM
CC[C@H](C)[C@@H]1NC(=O)[C@@H]2CCCN2C(=O)[C@@H]2CCCN2C(=O)[C@H]([C@@H](C)CC)NC(=O)[C@H](CO)NC(=O)[C@H](CCCCN)NC(=O)[C@H]([C@@H](C)O)NC(=O)[C@@H]2CSSC[C@H](NC1=O)C(=O)N[C@@H](Cc1ccccc1)C(=O)N1CCC[C@H]1C(=O)N[C@@H](CC(=O)O)C(=O)NCC(=O)N[C@@H](CCCNC(=N)N)C(=O)N2 | cell growth or viability | ATP luminescence | 72 h | – | > 100 µM
CC(=O)O[C@H]1C[C@H](O[C@H]2[C@@H](O)C[C@H](O[C@H]3[C@@H](O)C[C@H](O[C@H]4CC[C@@]5(C)[C@H](CC[C@@H]6[C@@H]5CC[C@]5(C)[C@@H](C7=CC(=O)OC7)[C@@H](O)C[C@]65O)C4)O[C@@H]3C)O[C@@H]2C)O[C@H](C)[C@H]1O[C@@H]1O[C@H](CO)[C@@H](O)[C@H](O)[C@H]1O | cell growth or viability | MTT | 48 h | – | 0.57 µM
COC(=O)[C@H](C(C)C)N(C)C(=O)[C@H](C(C)C)N(C)C(=O)[C@@H]1CCCN1C(=O)[C@H](C)N(C)C(=O)OC(C)(C)C | cell growth or viability | SRB | – | – | 3 µM
CN(C)c1ccc(-c2nc3ccccc3s2)[c]([Pt][O]C(=O)c2ccccc2P(c2ccccc2)c2ccccc2)c1 | – | – | – | photoactivated | 0.83 µM and 0.63 µM
CCN1CC2(COC)CCC(OC)C34C5CC6C(OC)CC(C5C6O)C(C(OC)C23)C14 (centres unmarked) | cell growth or viability | MTT | – | – | 8.36 µM
CC(C)[C@H](NC(=O)[C@H](CCCNC(=N)N)NC(=O)[C@H](CCC(=O)O)NC(=O)[C@H](CCCNC(=N)N)NC(=O)[C@@H](NC(=O)[C@H](CCCNC(=N)N)NC(=O)[C@@H](NC(=O)[C@@H]1CCCN1C(=O)[C@H]1CCCN1C(=O)[C@@H](NC(=O)[C@H](CCCNC(=N)N)NC(=O)[C@@H](NC(=O)[C@H](CCCNC(=N)N)NC(=O)[C@@H](NC(=O)[C@H](CCCNC(=N)N)NC(=O)[C@@H](NC(=O)[C@@H](N)CCCCN)C(C)C)C(C)C)C(C)C)C(C)C)[C@@H](C)O)C(C)C)C(=O)N[C@@H](CCCCN)C(N)=O | – | – | – | – | > 1000 µM
COCC12CN(C)C3C4C(OC)C1C3(C(OC)CC2O)C1CC2(O)C(O)C1C4(O)C(O)C2OC (centres unmarked) | cell growth or viability | MTT | – | – | 8.92 µM
OC[C@H]1[C@@H](O)[C@@H](O)CN1Cc1ccc(I)cc1 | cell growth or viability | MTS | 72 h | – | > 200 µM
CC1OC(OC2CCC3(C)C(CCC4C3CCC3(C)C(C5=CC(=O)OC5)CCC43O)C2)C(O)C(O)C1OC1OC(CO)C(O)C(O)C1O (centres unmarked) | cell growth or viability | MTT | – | – | 0.08 µM
COCC12CCC(OC)C34C5CC6(O)C(OC)C(O)C(O)(C5C6OC(=O)c5ccccc5)C(C(OC)C13)C4N(C)C2 (centres unmarked) | cell growth or viability | MTT | – | – | 21.5 µM
